{"data": "Measurements gathered from unrelated publications", "note": "Parts stem from different laboratories: compare values within a part only. Substitutions count along the parent as printed.", "chain of UniProt P62253 (whole entry, looked up)": "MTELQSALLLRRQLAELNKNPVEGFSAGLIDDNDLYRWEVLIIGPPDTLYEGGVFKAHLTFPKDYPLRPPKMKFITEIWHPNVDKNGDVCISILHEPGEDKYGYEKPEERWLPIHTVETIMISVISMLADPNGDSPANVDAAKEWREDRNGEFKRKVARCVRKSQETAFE", "chain of UniProt Q9NR09 (whole entry, looked up)": "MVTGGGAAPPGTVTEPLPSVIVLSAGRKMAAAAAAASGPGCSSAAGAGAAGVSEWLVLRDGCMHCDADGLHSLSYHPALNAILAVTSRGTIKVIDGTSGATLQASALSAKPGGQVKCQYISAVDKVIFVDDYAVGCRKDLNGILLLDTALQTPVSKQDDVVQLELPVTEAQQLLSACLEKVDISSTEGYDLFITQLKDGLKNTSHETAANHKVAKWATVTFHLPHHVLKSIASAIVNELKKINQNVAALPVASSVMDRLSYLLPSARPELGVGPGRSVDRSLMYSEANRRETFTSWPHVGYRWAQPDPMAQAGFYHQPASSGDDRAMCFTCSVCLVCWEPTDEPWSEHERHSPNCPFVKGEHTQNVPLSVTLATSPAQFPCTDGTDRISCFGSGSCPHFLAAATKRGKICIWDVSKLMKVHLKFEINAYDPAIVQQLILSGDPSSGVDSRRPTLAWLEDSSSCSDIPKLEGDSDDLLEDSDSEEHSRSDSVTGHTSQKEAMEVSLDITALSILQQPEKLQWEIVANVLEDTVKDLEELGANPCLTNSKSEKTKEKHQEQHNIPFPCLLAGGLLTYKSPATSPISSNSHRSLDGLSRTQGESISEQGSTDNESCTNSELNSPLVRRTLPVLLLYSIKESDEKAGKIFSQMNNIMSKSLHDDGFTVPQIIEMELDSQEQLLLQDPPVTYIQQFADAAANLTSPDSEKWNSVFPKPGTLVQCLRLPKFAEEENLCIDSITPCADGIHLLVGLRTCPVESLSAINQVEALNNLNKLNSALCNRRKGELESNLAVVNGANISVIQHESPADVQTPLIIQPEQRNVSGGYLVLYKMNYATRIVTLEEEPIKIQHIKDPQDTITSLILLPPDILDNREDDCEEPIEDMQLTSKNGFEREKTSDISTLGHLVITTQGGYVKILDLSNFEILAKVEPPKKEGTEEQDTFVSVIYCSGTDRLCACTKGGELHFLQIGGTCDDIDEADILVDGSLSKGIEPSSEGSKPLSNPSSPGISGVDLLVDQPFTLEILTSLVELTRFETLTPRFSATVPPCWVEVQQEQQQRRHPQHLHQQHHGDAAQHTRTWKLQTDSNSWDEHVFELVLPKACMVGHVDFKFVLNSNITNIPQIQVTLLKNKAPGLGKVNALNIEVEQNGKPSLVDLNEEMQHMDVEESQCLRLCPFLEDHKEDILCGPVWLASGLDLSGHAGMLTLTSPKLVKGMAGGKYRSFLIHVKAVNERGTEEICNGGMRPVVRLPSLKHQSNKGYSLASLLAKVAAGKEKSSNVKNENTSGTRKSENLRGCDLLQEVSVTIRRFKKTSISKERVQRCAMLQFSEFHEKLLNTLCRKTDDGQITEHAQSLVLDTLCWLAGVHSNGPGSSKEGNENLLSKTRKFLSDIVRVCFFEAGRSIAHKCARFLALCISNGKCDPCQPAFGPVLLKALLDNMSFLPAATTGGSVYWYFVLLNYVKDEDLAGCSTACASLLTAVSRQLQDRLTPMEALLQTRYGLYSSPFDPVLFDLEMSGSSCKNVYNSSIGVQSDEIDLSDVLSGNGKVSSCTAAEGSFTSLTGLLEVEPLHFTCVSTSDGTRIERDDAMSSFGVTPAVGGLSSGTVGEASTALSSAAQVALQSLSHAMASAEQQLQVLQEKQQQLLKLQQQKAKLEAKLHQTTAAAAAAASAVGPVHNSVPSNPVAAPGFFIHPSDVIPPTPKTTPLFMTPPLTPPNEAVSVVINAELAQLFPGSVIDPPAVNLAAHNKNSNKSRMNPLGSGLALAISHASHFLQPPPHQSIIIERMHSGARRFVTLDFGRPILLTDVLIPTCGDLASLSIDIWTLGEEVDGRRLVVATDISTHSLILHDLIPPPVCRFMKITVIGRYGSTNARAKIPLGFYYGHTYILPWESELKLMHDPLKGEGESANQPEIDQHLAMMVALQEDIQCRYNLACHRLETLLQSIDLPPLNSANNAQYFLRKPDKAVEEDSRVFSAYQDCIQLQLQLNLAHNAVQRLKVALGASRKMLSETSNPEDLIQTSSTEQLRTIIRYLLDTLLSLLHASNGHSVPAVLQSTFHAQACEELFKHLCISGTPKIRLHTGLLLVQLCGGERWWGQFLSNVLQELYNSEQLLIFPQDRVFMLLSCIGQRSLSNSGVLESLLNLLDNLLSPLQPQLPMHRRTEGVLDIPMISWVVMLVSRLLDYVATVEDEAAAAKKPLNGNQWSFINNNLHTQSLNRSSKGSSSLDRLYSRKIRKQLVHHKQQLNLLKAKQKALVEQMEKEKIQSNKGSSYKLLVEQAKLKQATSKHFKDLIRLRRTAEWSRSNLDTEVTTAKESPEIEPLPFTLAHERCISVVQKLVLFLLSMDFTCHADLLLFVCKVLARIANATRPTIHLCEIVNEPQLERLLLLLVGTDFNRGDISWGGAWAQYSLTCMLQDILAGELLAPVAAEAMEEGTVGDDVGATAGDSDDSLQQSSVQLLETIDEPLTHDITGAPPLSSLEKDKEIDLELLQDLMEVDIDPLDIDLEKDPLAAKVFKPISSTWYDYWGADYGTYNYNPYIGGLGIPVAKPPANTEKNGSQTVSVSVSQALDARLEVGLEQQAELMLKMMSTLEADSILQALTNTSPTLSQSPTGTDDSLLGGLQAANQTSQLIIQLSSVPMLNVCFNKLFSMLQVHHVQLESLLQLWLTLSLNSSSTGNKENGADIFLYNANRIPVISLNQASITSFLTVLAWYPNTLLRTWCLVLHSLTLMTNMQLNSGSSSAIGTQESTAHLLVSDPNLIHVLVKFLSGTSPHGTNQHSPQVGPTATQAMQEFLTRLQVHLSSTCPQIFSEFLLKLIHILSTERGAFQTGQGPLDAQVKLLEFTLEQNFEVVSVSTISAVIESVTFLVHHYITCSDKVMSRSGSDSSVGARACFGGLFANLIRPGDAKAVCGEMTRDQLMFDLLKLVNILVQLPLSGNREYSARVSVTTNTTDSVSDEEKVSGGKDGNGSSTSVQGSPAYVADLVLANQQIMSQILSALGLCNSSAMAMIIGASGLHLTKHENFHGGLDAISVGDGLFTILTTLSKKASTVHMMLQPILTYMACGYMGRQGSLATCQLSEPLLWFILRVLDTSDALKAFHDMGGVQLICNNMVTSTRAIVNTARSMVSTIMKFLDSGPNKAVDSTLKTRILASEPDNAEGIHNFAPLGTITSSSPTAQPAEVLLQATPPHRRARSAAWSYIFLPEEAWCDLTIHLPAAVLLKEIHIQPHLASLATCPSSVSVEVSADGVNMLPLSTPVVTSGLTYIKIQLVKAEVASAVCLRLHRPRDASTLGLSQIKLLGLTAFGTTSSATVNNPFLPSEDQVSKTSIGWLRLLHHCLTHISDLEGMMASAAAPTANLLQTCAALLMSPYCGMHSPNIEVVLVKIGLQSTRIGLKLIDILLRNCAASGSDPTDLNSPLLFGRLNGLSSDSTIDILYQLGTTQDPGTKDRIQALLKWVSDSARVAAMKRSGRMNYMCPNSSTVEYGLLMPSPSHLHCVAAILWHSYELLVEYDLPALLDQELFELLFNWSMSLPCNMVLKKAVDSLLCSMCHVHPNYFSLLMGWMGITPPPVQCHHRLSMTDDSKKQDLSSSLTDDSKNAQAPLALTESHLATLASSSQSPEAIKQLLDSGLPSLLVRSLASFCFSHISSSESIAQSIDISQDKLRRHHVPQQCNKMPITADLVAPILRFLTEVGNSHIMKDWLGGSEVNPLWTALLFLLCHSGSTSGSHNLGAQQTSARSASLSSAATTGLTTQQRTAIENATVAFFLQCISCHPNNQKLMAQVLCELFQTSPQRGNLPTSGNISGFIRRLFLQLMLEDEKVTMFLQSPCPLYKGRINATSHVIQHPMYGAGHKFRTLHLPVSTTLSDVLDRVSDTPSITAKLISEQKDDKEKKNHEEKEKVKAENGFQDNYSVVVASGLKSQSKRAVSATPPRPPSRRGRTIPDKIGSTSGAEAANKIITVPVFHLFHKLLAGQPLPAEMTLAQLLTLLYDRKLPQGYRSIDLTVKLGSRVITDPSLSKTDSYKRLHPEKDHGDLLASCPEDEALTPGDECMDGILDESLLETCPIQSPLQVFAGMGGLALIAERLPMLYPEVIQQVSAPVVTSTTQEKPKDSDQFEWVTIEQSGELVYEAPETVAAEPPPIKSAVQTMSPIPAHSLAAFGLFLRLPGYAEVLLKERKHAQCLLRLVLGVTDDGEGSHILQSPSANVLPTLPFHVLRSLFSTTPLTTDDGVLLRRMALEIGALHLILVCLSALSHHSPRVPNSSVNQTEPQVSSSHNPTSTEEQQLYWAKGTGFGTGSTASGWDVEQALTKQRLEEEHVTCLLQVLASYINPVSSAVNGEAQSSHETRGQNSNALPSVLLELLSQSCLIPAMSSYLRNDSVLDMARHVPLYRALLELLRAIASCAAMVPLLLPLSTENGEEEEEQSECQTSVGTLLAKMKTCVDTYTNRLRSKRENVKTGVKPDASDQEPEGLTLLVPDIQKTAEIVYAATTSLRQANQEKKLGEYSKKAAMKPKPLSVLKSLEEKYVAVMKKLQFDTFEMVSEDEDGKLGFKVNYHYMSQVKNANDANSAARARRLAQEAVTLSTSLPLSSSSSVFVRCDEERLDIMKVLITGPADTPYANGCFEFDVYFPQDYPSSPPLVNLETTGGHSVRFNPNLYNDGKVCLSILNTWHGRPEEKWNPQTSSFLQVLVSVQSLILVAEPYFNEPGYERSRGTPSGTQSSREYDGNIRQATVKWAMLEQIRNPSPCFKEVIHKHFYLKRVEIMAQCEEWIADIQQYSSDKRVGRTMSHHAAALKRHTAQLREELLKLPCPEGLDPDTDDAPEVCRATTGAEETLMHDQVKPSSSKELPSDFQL", "chain of UniProt P63146 (whole entry, looked up)": "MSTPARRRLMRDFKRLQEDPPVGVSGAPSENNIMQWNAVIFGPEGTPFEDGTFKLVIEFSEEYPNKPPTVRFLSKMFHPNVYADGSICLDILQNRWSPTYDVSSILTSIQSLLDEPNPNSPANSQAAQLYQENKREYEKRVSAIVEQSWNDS"}
{"data": "Series 1", "target": "JDP2, bZIP domain (human)", "technique": "DHFR protein complementation", "matrix": "yeast", "setting": "single substitutions, most at no-binding floor", "reference": "wild-type JUN-FOS pair", "direction": "higher = stronger binding", "parent": "JUN, bZIP domain (human); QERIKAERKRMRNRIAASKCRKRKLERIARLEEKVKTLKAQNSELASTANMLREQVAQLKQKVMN; partner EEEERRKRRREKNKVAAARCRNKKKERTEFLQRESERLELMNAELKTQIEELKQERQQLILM"}
{"Change": "N42W", "binding fitness": "0.185 natural log"}
{"Change": "A49L", "binding fitness": "0.252 natural log"}
{"Change": "L45M", "binding fitness": "0.236 natural log"}
{"Change": "E44M", "binding fitness": "0.24 natural log"}
{"Change": "R53T", "binding fitness": "0.234 natural log"}
{"Change": "T37M", "binding fitness": "0.411 natural log"}
{"Change": "L59P", "binding fitness": "-0.991 natural log"}
{"Change": "A46G", "binding fitness": "0.21 natural log"}
{"Change": "R30P", "binding fitness": "0.365 natural log"}
{"Change": "N42A", "binding fitness": "0.208 natural log"}
{"Change": "A46T", "binding fitness": "0.357 natural log"}
{"Change": "E32G", "binding fitness": "0.182 natural log"}
{"Change": "E44C", "binding fitness": "0.241 natural log"}
{"Change": "S47F", "binding fitness": "0.29 natural log"}
{"Change": "Q55H", "binding fitness": "0.304 natural log"}
{"Change": "N42R", "binding fitness": "0.161 natural log"}
{"Change": "A49G", "binding fitness": "0.0988 natural log"}
{"Change": "T37D", "binding fitness": "0.236 natural log"}
{"Change": "R53W", "binding fitness": "0.127 natural log"}
{"Change": "T48C", "binding fitness": "0.243 natural log"}
{"Change": "L52Y", "binding fitness": "0.21 natural log"}
{"Change": "E54D", "binding fitness": "0.199 natural log"}
{"Change": "A40G", "binding fitness": "0.272 natural log"}
{"Change": "R30H", "binding fitness": "0.33 natural log"}
{"Change": "M51T", "binding fitness": "0.348 natural log"}
{"data": "Series 2", "target": "Interferon regulatory factor 7, full length, phosphomimetic (IRF7, Homo sapiens, UniProt Q92985, residues 1-503, S101K/S471D/S472D/S475D/S476D/S477D/S483D/S484D/S487D)", "technique": "protein-binding microarray", "molecule type": "double-stranded DNA, one strand shown", "matrix": "in vitro", "tested at": "250 nM", "setting": "60-bp whole probe", "together with": "salmon DNA 0.4 mg/ml", "reference": "random background probes", "direction": "higher = stronger binding", "all sequences stand within": "GCCTAGCAC … GTCTTGATTCGCTTGACGCTGCTG", "Residues (chain)": "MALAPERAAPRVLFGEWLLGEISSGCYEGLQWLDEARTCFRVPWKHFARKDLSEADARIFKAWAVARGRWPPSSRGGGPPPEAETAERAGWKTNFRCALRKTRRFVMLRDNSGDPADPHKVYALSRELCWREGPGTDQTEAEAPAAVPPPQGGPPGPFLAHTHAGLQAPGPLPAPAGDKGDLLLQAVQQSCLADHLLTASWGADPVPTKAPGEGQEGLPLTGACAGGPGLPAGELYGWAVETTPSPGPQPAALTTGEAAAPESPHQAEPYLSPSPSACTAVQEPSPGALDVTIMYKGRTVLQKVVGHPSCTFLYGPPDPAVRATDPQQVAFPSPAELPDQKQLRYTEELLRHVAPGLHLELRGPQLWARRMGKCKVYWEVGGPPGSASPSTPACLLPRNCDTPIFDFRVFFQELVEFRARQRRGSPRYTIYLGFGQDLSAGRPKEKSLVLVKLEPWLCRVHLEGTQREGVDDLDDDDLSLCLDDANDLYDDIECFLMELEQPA"}
{"Sequence": "TTAGATATCAGAATGGATTAGTGCTAG", "log fluorescence": "-0.341 z-score"}
{"Sequence": "TCCCAAGTCTTGTTTTACAATGTGCTA", "log fluorescence": "1.81 z-score"}
{"Sequence": "TTAGATATCGACTATCGGTTAGTGCTA", "log fluorescence": "-0.054 z-score"}
{"Sequence": "GACGATTTCGGGTTACGAGACGTGCTA", "log fluorescence": "2.58 z-score"}
{"Sequence": "GACGAACTGGGATATCGAGACGTGCTA", "log fluorescence": "-0.346 z-score"}
{"Sequence": "GACGATATCGGGAGTGGAGACGTGCTA", "log fluorescence": "-0.52 z-score"}
{"Sequence": "TTAGATTACAGTATCGATTAGTGCTAG", "log fluorescence": "0.849 z-score"}
{"Sequence": "TTCCTTTACTTTCTTTTTTTGTGCTAG", "log fluorescence": "2.28 z-score"}
{"Sequence": "GACAGTTTCGGTCTCGGGACGTGCTAG", "log fluorescence": "7.06 z-score"}
{"Sequence": "GACGATATCGGGTATCGTGACGTGCTA", "log fluorescence": "-0.291 z-score"}
{"Sequence": "GACGGTTTAGGGACTGGGGACGTGCTA", "log fluorescence": "-0.172 z-score"}
{"Sequence": "TTAGGTTTCGACTTTAGGTTAGTGCTA", "log fluorescence": "10 z-score"}
{"Sequence": "GACGATTCCAGTTTTGAGACGTGCTAG", "log fluorescence": "1.18 z-score"}
{"Sequence": "GACGATTTCAGACGGGAGACGTGCTAG", "log fluorescence": "-0.0811 z-score"}
{"Sequence": "TTAGGTCTCGGACTGGATTAGTGCTAG", "log fluorescence": "0.265 z-score"}
{"Sequence": "GCTTTTATCCCTGACAGAAGGTGCTAG", "log fluorescence": "1.85 z-score"}
{"Sequence": "TTAGGTCCCGGTTTCGGTTAGTGCTAG", "log fluorescence": "10.2 z-score"}
{"Sequence": "AGTGTCTCCATCAGAGGAGAGTGCTAG", "log fluorescence": "-0.437 z-score"}
{"Sequence": "TCACCCATGAGTCTCAAACTGTGCTAG", "log fluorescence": "0.168 z-score"}
{"Sequence": "TTAGGCATCCTTTTCCTTTAGTGCTAG", "log fluorescence": "0.736 z-score"}
{"data": "Series 3", "target": "ABI1, truncated, D143A, DHFR fusion (Arabidopsis thaliana)", "technique": "DHFR PCA, deep sequencing", "matrix": "yeast", "setting": "methotrexate growth selection, single substitutions", "together with": "(+)-ABA 710 µM", "reference": "wild-type fitted maximum", "direction": "higher = stronger binding", "parent": "PYL1, truncated, DHFR fusion (Arabidopsis thaliana); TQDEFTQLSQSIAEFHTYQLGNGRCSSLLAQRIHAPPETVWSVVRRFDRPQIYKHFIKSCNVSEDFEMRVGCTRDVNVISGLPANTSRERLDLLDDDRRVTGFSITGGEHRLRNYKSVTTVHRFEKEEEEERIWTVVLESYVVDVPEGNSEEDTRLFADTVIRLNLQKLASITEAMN; partner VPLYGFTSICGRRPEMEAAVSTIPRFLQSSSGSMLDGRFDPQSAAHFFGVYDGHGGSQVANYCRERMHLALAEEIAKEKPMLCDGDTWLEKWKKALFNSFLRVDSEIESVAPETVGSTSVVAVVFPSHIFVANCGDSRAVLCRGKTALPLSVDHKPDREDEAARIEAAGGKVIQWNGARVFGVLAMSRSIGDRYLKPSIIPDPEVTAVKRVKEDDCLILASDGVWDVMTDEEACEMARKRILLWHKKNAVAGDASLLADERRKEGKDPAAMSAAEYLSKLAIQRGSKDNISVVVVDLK"}
{"Change": "V70E", "relative binding score [%]": 98.7}
{"Change": "H16M", "relative binding score [%]": 31.4}
{"Change": "F157C", "relative binding score [%]": 36.1}
{"Change": "G23V", "relative binding score [%]": 89.1}
{"Change": "K54E", "relative binding score [%]": -2.59}
{"Change": "K168R", "relative binding score [%]": 99.1}
{"Change": "V137D", "relative binding score [%]": -3.44}
{"Change": "P37E", "relative binding score [%]": 86}
{"Change": "A175P", "relative binding score [%]": 95.9}
{"Change": "Y53Q", "relative binding score [%]": 51.2}
{"Change": "N165K", "relative binding score [%]": 68.9}
{"Change": "T119H", "relative binding score [%]": 28.1}
{"Change": "P50H", "relative binding score [%]": -3.55}
{"Change": "Q10G", "relative binding score [%]": 108}
{"Change": "G107N", "relative binding score [%]": 95.7}
{"Change": "V100T", "relative binding score [%]": 102}
{"Change": "V161L", "relative binding score [%]": 97.7}
{"Change": "K116R", "relative binding score [%]": 104}
{"Change": "R69K", "relative binding score [%]": 96.9}
{"Change": "E130C", "relative binding score [%]": 109}
{"Change": "W134R", "relative binding score [%]": 102}
{"Change": "P36A", "relative binding score [%]": 99.3}
{"Change": "Q51R", "relative binding score [%]": 73.2}
{"Change": "T86S", "relative binding score [%]": 102}
{"Change": "V100F", "relative binding score [%]": 86.9}
{"data": "Series 4", "target": "CCND1, cyclin fold, Cln2 fusion (human)", "technique": "yeast growth competition, sequencing", "matrix": "yeast", "setting": "strong parent motif", "reference": "not given", "direction": "higher = stronger binding", "parent": "RBL1 docking peptide (human); GSAKRRLFGEDPP"}
{"Change": "A3M", "normalised enrichment score": -0.333}
{"Change": "K4H", "normalised enrichment score": 0.291}
{"Change": "S2I", "normalised enrichment score": 0.908}
{"Change": "R5K", "normalised enrichment score": 0.4}
{"Change": "S2W", "normalised enrichment score": -0.199}
{"Change": "P12V", "normalised enrichment score": 1.48}
{"Change": "A3V", "normalised enrichment score": 1.19}
{"Change": "K4R", "normalised enrichment score": 2.28}
{"Change": "D11C", "normalised enrichment score": 1.15}
{"Change": "R6C", "normalised enrichment score": 1.23}
{"Change": "F8L", "normalised enrichment score": 0.381}
{"Change": "P12S", "normalised enrichment score": 2.99}
{"Change": "R5C", "normalised enrichment score": 0.648}
{"Change": "P13E", "normalised enrichment score": 2.51}
{"Change": "S2K", "normalised enrichment score": 1.23}
{"Change": "P12E", "normalised enrichment score": 3.18}
{"Change": "R6Q", "normalised enrichment score": 1.82}
{"Change": "L7H", "normalised enrichment score": 0.013}
{"Change": "A3I", "normalised enrichment score": -0.0401}
{"Change": "L7T", "normalised enrichment score": -0.321}
{"Change": "K4Q", "normalised enrichment score": 0.859}
{"data": "Series 5", "Substance": "RNF167 RING domain (UniProt Q9H6Y7)", "technique": "yeast two-hybrid", "matrix": "yeast", "setting": "mostly zero background", "reference": "not given", "direction": "higher = stronger interaction"}
{"target": "UBE2Q1 UBC core domain (UniProt Q7Z7E8)", "lacZ reporter activity": 0}
{"target": "UBE2O UBC core domain (UniProt Q9C0C9)", "lacZ reporter activity": 0}
{"target": "UBE2Z UBC core domain (UniProt Q9H832)", "lacZ reporter activity": 0}
{"target": "UBE2B UBC core domain (UniProt P63146)", "lacZ reporter activity": 0}
{"target": "UBE2D1 UBC core domain (UniProt P51668)", "lacZ reporter activity": 13600}
{"target": "UBE2S UBC core domain (UniProt Q16763)", "lacZ reporter activity": 0}
{"target": "UBE2C UBC core domain (UniProt O00762)", "lacZ reporter activity": 0}
{"target": "UBE2R2 UBC core domain (UniProt Q712K3)", "lacZ reporter activity": 0}
{"target": "UBE2J1 UBC core domain (UniProt Q9Y385)", "lacZ reporter activity": 0}
{"target": "UBE2G1 UBC core domain (UniProt P62253)", "lacZ reporter activity": 0}
{"target": "UBE2M UBC core domain (UniProt P61081)", "lacZ reporter activity": 0}
{"target": "UBE2I UBC core domain (UniProt P63279)", "lacZ reporter activity": 0}
{"target": "BIRC6 UBC core domain (UniProt Q9NR09)", "lacZ reporter activity": 0}
{"target": "UBE2T UBC core domain (UniProt Q9NPD8)", "lacZ reporter activity": 0}
{"target": "UBE2E3 UBC core domain (UniProt Q969T4)", "lacZ reporter activity": 10900}
{"target": "UBE2J2 UBC core domain (UniProt Q8N2K1)", "lacZ reporter activity": 0}
{"note": "Excerpt of the above (series 5):"}
{"target": "UBE2Q1 UBC core domain (UniProt Q7Z7E8)", "lacZ reporter activity": 0}
{"target": "UBE2O UBC core domain (UniProt Q9C0C9)", "lacZ reporter activity": 0}
{"target": "UBE2Z UBC core domain (UniProt Q9H832)", "lacZ reporter activity": 0}
{"target": "UBE2B UBC core domain (UniProt P63146)", "lacZ reporter activity": 0}
{"target": "UBE2D1 UBC core domain (UniProt P51668)", "lacZ reporter activity": 13600}
{"target": "UBE2S UBC core domain (UniProt Q16763)", "lacZ reporter activity": 0}
{"target": "UBE2C UBC core domain (UniProt O00762)", "lacZ reporter activity": 0}
{"target": "UBE2R2 UBC core domain (UniProt Q712K3)", "lacZ reporter activity": 0}
{"target": "UBE2J1 UBC core domain (UniProt Q9Y385)", "lacZ reporter activity": 0}
{"target": "UBE2G1 UBC core domain (UniProt P62253)", "lacZ reporter activity": 0}
{"target": "UBE2M UBC core domain (UniProt P61081)", "lacZ reporter activity": 0}
{"target": "UBE2I UBC core domain (UniProt P63279)", "lacZ reporter activity": 0}
{"target": "BIRC6 UBC core domain (UniProt Q9NR09)", "lacZ reporter activity": 0}
